Measurements from different studies.
Parts stem from different laboratories: compare values within a part only. Several values in a cell are separate wells, animals, samples, runs or records.
Chain of UniProt O75676 (whole entry, looked up): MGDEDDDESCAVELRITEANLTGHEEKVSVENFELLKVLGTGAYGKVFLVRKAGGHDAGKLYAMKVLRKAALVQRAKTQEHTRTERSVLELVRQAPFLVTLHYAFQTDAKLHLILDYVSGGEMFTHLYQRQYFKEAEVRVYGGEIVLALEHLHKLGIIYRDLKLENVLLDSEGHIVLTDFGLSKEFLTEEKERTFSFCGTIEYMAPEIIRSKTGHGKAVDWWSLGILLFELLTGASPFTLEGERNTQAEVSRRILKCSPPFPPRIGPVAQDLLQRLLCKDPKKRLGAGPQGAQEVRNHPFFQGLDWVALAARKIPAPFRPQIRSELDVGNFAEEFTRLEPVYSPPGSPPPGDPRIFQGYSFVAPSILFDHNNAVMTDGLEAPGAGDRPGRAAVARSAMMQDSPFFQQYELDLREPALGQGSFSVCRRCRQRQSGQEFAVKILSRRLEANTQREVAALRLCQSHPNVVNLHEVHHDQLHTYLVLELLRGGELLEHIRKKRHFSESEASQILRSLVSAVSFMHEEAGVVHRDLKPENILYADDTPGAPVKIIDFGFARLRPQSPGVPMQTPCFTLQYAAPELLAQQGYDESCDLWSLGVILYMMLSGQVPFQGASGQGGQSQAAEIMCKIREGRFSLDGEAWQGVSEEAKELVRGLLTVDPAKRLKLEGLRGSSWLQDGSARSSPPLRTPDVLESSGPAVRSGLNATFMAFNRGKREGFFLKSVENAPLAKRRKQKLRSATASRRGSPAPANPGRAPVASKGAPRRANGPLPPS
Chain of UniProt Q8IW41 (whole entry, looked up): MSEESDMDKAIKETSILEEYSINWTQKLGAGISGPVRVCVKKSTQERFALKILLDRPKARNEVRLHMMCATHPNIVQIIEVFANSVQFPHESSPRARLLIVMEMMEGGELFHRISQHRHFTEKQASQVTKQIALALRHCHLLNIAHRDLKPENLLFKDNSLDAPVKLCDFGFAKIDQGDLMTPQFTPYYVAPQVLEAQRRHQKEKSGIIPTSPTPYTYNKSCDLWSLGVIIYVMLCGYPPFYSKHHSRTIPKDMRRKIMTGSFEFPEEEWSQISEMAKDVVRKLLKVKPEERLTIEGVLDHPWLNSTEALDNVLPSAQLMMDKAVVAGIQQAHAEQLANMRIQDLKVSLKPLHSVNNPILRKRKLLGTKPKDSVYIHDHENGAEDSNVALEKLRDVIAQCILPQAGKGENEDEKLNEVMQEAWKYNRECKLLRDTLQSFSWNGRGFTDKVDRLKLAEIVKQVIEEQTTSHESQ
Chain of UniProt Q9H4B4 (whole entry, looked up): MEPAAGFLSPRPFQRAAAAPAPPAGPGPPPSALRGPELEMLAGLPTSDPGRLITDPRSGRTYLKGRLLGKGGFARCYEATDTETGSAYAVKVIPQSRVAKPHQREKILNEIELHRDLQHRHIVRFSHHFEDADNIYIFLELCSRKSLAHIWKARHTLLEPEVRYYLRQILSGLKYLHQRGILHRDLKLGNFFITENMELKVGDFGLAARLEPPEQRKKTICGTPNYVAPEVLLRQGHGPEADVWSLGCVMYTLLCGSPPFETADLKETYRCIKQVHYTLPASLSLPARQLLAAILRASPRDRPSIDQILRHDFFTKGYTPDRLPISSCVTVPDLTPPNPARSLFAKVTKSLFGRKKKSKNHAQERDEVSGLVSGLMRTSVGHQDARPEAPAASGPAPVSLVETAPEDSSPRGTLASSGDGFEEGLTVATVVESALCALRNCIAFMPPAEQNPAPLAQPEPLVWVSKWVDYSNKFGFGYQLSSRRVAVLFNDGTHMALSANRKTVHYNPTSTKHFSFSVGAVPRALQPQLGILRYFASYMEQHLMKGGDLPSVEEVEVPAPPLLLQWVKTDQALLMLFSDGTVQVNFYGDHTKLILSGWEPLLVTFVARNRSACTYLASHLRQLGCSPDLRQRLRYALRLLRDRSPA
Chain of UniProt Q15759 (whole entry, looked up): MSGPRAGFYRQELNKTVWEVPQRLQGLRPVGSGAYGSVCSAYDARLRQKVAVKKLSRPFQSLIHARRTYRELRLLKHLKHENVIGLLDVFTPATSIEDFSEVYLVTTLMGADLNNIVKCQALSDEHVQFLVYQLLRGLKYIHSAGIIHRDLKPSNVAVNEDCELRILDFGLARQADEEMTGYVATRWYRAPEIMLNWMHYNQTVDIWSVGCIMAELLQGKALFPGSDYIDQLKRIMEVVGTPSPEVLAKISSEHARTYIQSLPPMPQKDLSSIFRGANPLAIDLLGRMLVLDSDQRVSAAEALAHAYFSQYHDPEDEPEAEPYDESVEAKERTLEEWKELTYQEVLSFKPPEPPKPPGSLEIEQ
Chain of UniProt Q14680 (whole entry, looked up): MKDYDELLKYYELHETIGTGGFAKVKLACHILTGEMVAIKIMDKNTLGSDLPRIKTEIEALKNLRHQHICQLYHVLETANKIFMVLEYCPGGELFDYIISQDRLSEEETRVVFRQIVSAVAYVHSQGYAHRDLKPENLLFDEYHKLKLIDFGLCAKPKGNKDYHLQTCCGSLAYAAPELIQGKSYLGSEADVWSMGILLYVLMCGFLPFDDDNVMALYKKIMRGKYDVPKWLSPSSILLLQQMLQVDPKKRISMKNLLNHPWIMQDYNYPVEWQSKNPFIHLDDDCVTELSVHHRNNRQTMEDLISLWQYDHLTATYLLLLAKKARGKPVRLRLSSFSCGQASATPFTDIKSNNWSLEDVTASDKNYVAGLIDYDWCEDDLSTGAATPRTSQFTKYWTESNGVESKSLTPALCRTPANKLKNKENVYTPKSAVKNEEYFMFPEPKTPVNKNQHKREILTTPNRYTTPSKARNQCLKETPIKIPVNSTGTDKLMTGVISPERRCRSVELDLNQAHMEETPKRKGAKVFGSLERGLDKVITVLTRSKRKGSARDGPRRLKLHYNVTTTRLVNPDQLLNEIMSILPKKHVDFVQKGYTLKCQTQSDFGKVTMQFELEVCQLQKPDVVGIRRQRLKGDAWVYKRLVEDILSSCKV
Chain of UniProt Q02750 (whole entry, looked up): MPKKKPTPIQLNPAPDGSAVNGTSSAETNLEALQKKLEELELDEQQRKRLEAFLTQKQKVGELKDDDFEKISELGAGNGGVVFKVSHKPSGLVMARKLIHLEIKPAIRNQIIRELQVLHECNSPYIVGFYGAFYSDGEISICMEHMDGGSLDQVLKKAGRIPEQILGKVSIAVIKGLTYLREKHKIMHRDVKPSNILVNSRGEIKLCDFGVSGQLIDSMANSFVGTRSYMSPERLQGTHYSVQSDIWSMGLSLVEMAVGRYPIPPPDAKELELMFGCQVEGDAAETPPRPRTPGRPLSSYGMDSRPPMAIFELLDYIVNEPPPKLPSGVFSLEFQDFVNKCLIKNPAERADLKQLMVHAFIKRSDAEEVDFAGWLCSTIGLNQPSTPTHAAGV

Set 1
Compound: COc1ccc2[nH]c3c4[nH]c5ccc(OC)cc5c4c4c(c3c2c1)C(=O)NC4=O
Concentration: 1 µM
For CLK4 (Homo sapiens, UniProt Q9HAZ1); competitive binding panel; relative to: vehicle: remaining binding read 57%.
The remaining binding was 71% (RPS6KA4 (Homo sapiens, UniProt O75676); competitive binding scan; N-terminal kinase domain 1).
It gave 100% for remaining binding (MAPKAPK2 (Homo sapiens, UniProt P49137); competitive binding panel; relative to: vehicle).
The remaining binding was 24% (KIT (Homo sapiens, UniProt P10721); competitive binding panel; relative to: vehicle).
The remaining binding was 0% (MAP3K19 (Homo sapiens, UniProt Q56UN5); competitive binding panel, refers to: YSK4; relative to: vehicle).
For MAP3K14 (Homo sapiens, UniProt Q99558); competitive binding; NIK: remaining binding read 20%.
The remaining binding was 43% (MELK (Homo sapiens, UniProt Q14680); competitive binding panel; relative to: vehicle).
The remaining binding was 84% (STK32C (Homo sapiens, UniProt Q86UX6); competitive binding panel, refers to: YANK3; relative to: vehicle).
It gave 6.9% for remaining binding (MYLK (Homo sapiens, UniProt Q15746); competitive binding panel; relative to: vehicle).
MAPKAPK5 (Homo sapiens, UniProt Q8IW41); competitive binding panel; relative to: vehicle — remaining binding: 90%.
ITK (Homo sapiens, UniProt Q08881); competitive binding panel; relative to: vehicle — remaining binding: 89%.
It gave 76% for remaining binding (ZAP70 (Homo sapiens, UniProt P43403); competitive binding panel; relative to: vehicle).

Set 2
Compound: CCN1/C(=C/C(C)=O)Sc2ccc(OC)cc21
Observed: enzyme activity
Action: inhibitor
Concentration: 0.5 µM
Relative to: control
It gave 97.9% for remaining activity (DCLK2 (Homo sapiens, UniProt Q8N568)).
It gave 95.4% for remaining activity (MAPK14 (Homo sapiens, UniProt Q16539)).
The remaining activity was 86.2% (Cyclin-dependent kinase 9, with cyclin K (CDK9, Homo sapiens, UniProt P50750)).
The remaining activity was 97.5% (Cyclin-dependent kinase 1, with cyclin A (CDK1, Homo sapiens, UniProt P06493)).
For MET (Homo sapiens, UniProt P08581): remaining activity read 103%.
PNCK (Homo sapiens, UniProt Q6P2M8) — remaining activity: 101%.
For TXK (Homo sapiens, UniProt P42681): remaining activity read 100%.
The remaining activity was 102% (MARK4 (Homo sapiens, UniProt Q96L34)).
For KDR (Homo sapiens, UniProt P35968): remaining activity read 104%.
CAMK4 (Homo sapiens, UniProt Q16566) — remaining activity: 99.9%.
For PLK3 (Homo sapiens, UniProt Q9H4B4): remaining activity read 99.4%.
RPS6KA4 (Homo sapiens, UniProt O75676) — remaining activity: 91.8%.
For PAK3 (Homo sapiens, UniProt O75914): remaining activity read 96.3%.
For PRKG2 (Homo sapiens, UniProt Q13237): remaining activity read 65.8%.
MAP2K1 (Homo sapiens, UniProt Q02750) — remaining activity: 98.7%.
For ROCK1 (Homo sapiens, UniProt Q13464): remaining activity read 99.3%.
The remaining activity was 96.6% (DDR2 (Homo sapiens, UniProt Q16832)).
For MARK2 (Homo sapiens, UniProt Q7KZI7): remaining activity read 89.5%.
For NEK3 (Homo sapiens, UniProt P51956): remaining activity read 82.5%.
It gave 97.1% for remaining activity (MAPK1 (Homo sapiens, UniProt P28482)).
For AKT2 (Homo sapiens, UniProt P31751): remaining activity read 95.2%.
For CDC42BPB (Homo sapiens, UniProt Q9Y5S2): remaining activity read 114%.
The remaining activity was 96.2% (GRK4 (Homo sapiens, UniProt P32298)).
MAPK11 (Homo sapiens, UniProt Q15759) — remaining activity: 84.5%.

Set 3
Target: Calcium/calmodulin-dependent protein kinase type II subunit alpha (CAMK2A, Homo sapiens, UniProt Q9UQM7)
Chain of UniProt Q9UQM7 (whole entry, looked up): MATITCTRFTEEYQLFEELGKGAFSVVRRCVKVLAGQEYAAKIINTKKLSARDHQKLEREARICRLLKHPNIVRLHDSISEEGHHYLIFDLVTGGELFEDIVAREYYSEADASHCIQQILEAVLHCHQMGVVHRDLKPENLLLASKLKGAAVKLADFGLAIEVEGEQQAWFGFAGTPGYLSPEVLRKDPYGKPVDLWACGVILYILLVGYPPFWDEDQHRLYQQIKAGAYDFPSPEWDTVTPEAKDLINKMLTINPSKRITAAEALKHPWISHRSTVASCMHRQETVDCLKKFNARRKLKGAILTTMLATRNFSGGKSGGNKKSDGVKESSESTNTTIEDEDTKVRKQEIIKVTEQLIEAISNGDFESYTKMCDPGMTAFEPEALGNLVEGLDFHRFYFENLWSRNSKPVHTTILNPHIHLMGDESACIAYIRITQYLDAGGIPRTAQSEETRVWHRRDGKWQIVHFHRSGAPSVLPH
Observed: enzyme activity
Action: inhibitor
Concentration: 10 µM
For `Nc1ncc2ncn(CC3(OCP(=O)(O)O)CC3)c2n1`, the inhibition was -3%.
`COc1cc2c(cc1CC=C(C)C)C(=O)C[C@@H](c1ccc(O)cc1)O2` gave an inhibition of -7%.
`CC(C)(O)c1ccccc1CC[C@@H](SCC1(CC(=O)O)CC1)c1cccc(/C=C/c2ccc3ccc(Cl)cc3n2)c1` gave an inhibition of -6%.
`COc1c(CC=C(C)C)c(O)cc2oc(=O)c(-c3ccc(O)cc3O)cc12` gave an inhibition of -1%.
`CC[C@H](CC[C@@H](C)[C@H]1CC[C@H]2[C@@H]3CC=C4C[C@@H](O)CC[C@]4(C)[C@H]3CC[C@]12C)C(C)C` has an inhibition of -0.11% and 0.21% and 0.24%.
`CS(=O)(=O)c1ccc(C2=C(c3ccccc3)C(=O)OC2)cc1` has an inhibition of 3%.
`C=C1CCOC1=O` gave an inhibition of 3%.
`NC(CO)C(=O)O` (racemic) gave an inhibition of 23%.
`CCC(=O)Oc1ccc2c(c1)CC[C@@H]1[C@@H]2CC[C@]2(C)[C@@H](OC(=O)CC)CC[C@@H]12` has an inhibition of 4%.
For `Cc1ccc(NC(=O)C2(c3ccc4c(c3)OC(F)(F)O4)CC2)nc1-c1cccc(C(=O)O)c1`, the inhibition was 6%.
With `O=C(O)[C@@H](O)Cc1ccccc1` the inhibition was 21%.

Set 4
Compound: CCOC(=O)c1cc2cc(-c3cc(C(=O)NCc4ccc(C(=O)O)cc4)nn3C)ccc2[nH]1
Observed: cell-free assay
Method: competition with immobilised ligand
Concentration: 0.1 µM
The remaining binding was 95% (PIM1 (Homo sapiens, UniProt P11309)).
Ribosomal protein S6 kinase alpha-2, C-terminal kinase domain (RPS6KA2, Homo sapiens, UniProt Q15349) — remaining binding: 84%.
For CDK8 (Homo sapiens, UniProt P49336): remaining binding read 62%.
EGFR (Homo sapiens, UniProt P00533) — remaining binding: 92%.
The remaining binding was 100% (PRKD3 (Homo sapiens, UniProt O94806)).
TSSK1B (Homo sapiens, UniProt Q9BXA7) — remaining binding: 100%.
MAPKAPK5 (Homo sapiens, UniProt Q8IW41) — remaining binding: 92%.

Some of these lines once more (set 1):
The remaining binding was 84% (STK32C (Homo sapiens, UniProt Q86UX6); competitive binding panel, refers to: YANK3; relative to: vehicle).
The remaining binding was 43% (MELK (Homo sapiens, UniProt Q14680); competitive binding panel; relative to: vehicle).
The remaining binding was 71% (RPS6KA4 (Homo sapiens, UniProt O75676); competitive binding scan; N-terminal kinase domain 1).
It gave 100% for remaining binding (MAPKAPK2 (Homo sapiens, UniProt P49137); competitive binding panel; relative to: vehicle).
It gave 76% for remaining binding (ZAP70 (Homo sapiens, UniProt P43403); competitive binding panel; relative to: vehicle).
The remaining binding was 0% (MAP3K19 (Homo sapiens, UniProt Q56UN5); competitive binding panel, refers to: YSK4; relative to: vehicle).
The remaining binding was 24% (KIT (Homo sapiens, UniProt P10721); competitive binding panel; relative to: vehicle).
It gave 6.9% for remaining binding (MYLK (Homo sapiens, UniProt Q15746); competitive binding panel; relative to: vehicle).
